Measured values gathered from unrelated publications.
Numbered parts are unrelated; each lists some results of a single study. “And” joins repeats or separate records; there may be more than shown.

Study 1
SMILES: Cc1ccc(O)c(C)c1-c1cnc2[nH]c(-c3ccc(N4CCN(C)CC4)nc3C)nc2c1
Target: Membrane-associated tyrosine- and threonine-specific cdc2-inhibitory kinase (PKMYT1, Homo sapiens, UniProt Q99640)
UniProt Q99640, sequence (whole entry, looked up): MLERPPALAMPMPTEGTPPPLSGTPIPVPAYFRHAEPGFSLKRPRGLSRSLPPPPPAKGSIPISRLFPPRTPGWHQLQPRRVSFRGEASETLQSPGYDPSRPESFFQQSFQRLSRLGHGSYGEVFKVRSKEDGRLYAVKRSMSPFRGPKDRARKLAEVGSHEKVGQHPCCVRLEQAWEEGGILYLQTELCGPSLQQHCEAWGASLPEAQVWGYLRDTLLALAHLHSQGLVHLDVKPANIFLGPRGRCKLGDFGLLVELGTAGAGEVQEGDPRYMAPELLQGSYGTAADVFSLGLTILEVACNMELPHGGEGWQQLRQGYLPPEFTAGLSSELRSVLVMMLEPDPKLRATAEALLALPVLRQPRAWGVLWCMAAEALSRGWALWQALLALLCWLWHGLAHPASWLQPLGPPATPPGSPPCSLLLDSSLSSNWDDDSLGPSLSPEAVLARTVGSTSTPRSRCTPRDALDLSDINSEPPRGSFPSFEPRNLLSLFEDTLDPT
observed | method | concentration | inhibition
– | – | 0.00457 µM | -14% and -15.5%
cell-free assay | TR-FRET | 3.333 µM | 92.4%
– | – | 0.1235 µM | 25.8%
cell-free assay | TR-FRET | 1.111 µM | 80.4%
– | – | 10 µM | 96.3%
– | – | 1.111 µM | 85.5%
cell-free assay | TR-FRET | 10 µM | 97.3%
– | – | 0.000508 µM | -13.6%

Study 2
SMILES: C[C@@H]1CN(c2ccc(-c3cc(C(=O)NCCOCCOCCOCCOCCNC(=O)Cn4cc(-c5[nH]cc(C(=O)N[C@@H](CC(N)=O)c6ccc(F)c(Cl)c6)c5-c5ccc(Cl)cc5F)cn4)ccc3F)cc2NC(=O)c2c[nH]c(=O)cc2C(F)(F)F)C[C@H](C)N1C
Observed: thermal unfolding
Method: differential scanning fluorimetry
Concentration: 5.5 µM
Reading: higher = more unfolded
WDR5: WD repeat-containing protein 5 (WDR5, Homo sapiens, UniProt P61964)
DCAF1: DDB1- and CUL4-associated factor 1 (DCAF1, Homo sapiens, UniProt Q9Y4B6)
UniProt Q9Y4B6, sequence (whole entry, looked up): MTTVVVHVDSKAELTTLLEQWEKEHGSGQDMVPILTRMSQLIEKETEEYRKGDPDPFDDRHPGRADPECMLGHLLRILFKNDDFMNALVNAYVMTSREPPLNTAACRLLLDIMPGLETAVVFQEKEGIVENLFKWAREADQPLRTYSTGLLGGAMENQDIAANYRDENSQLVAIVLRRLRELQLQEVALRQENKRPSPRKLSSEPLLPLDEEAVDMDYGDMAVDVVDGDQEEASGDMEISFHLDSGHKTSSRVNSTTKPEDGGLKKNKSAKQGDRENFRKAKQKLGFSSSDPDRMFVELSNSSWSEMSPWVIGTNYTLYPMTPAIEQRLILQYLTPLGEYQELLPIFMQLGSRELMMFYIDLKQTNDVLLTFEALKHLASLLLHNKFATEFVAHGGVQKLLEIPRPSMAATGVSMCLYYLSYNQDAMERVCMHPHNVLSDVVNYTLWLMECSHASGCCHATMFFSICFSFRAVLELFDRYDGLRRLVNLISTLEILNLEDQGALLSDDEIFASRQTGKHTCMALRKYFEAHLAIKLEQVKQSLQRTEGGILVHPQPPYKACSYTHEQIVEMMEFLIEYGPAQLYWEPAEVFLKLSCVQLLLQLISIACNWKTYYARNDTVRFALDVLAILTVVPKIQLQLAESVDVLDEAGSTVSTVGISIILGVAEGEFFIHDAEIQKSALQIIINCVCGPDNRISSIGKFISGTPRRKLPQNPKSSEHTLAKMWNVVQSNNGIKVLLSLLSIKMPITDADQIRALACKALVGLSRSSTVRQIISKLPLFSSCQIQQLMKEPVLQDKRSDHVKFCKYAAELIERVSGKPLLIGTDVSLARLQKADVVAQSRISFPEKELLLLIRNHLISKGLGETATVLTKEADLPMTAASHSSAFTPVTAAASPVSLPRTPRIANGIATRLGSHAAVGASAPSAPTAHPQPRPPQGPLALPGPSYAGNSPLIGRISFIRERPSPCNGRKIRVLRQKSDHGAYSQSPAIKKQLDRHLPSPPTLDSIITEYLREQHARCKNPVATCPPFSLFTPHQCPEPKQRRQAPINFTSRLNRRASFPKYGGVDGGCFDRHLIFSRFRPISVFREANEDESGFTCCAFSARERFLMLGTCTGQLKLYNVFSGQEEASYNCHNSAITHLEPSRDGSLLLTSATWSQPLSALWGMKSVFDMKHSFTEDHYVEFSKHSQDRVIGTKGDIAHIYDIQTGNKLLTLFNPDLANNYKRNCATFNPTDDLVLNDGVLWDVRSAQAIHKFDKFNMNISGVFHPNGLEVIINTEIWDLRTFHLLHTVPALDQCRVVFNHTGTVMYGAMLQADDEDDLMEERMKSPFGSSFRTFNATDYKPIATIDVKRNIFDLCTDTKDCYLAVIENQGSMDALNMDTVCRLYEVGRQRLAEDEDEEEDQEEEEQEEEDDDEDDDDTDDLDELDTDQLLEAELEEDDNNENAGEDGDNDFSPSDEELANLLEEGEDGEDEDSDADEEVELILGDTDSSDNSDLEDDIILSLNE
target | temperature | SYPRO Orange fluorescence [a.u.]
WDR5 | 93.01 °C | 40300
WDR5 | 93.61 °C | 39600
WDR5 | 52.61 °C | 14400
WDR5 | 60.61 °C | 10000
DCAF1 | 64.01 °C | 54200
WDR5 | 82.81 °C | 32800
DCAF1 | 75.01 °C | 49200
DCAF1 | 42 °C | 11000
WDR5 | 56.41 °C | 12900
WDR5 | 47.6 °C | 14400
DCAF1 | 48 °C | 13500

Study 3
Compound: COCC1CC2C(CCC3C(O)CCC32)c2ccc(O)cc21 (stereo not drawn)
Cell line: PANC-1
Method: DNA microarray
Reference: control
measured | concentration | fold change
ADAMTS8 mRNA | 100 µM | 32.6
ACTB mRNA | 100 µM | 0.615
ACTB mRNA | 25 µM | 0.608
UBB mRNA | 100 µM | 0.607
ADAMTS14 mRNA | 100 µM | 6.86
UBB mRNA | 25 µM | 0.604
CCL22 mRNA | 100 µM | 12
CCL1 mRNA (probe A_23_P49759) | 25 µM | 5.07
ADAMTS14 mRNA | 25 µM | 5.75
CCL22 mRNA | 25 µM | 25.2
ADAMTS8 mRNA | 25 µM | 24.9
CCL1 mRNA (probe A_23_P49759) | 100 µM | 7.09

Study 4
SMILES: CCN(CC)CC(=O)N1CCN(c2nc(NCc3nc4cc(Cl)c(Cl)cc4[nH]3)c3ncn(CC)c3n2)CC1
Cell line: MDA-MB-231
Method: qRT-PCR
Time: 6 h
Setting: unit not given
measured | concentration | reference | mRNA level
RAD51 | 0.05 µM | DMSO | 0.288 and 0.325 and 0.271
ATM | 50 nM | untreated | 0.404
RAD51 | 50 nM | untreated | 0.295
ATR | 0.05 µM | DMSO | 0.377 and 0.418 and 0.423
FANCD2 | 50 nM | untreated | 0.511
BRCA1 | 0.05 µM | DMSO | 0.388 and 0.126 and 0.383
FANCI | 50 nM | untreated | 0.435
FANCD2 | 0.05 µM | DMSO | 0.532 and 0.485 and 0.517

For quick reference, copied from above (study 4):
measured | concentration | reference | mRNA level
ATM | 50 nM | untreated | 0.404
RAD51 | 50 nM | untreated | 0.295
